Results pooled from the literature.
Values joined by “and” are separate records of one study, mostly repeats; a detail may differ. ± gives the spread as reported.

COc1cc2c(NC3CCN(CC4CCCCC4)CC3)nc(N3CCCN(C(C)C)CC3)nc2cc1OCCCN1CCCCC1  viability (OCI-Ly1; 0.5 µM, 120 h): 91.5%
O=C(COc1cccc2c1C(=O)N(C1CCC(=O)NC1=O)C2=O)NCCOCCOCCNS(=O)(=O)Nc1cccc(-c2cn3cc(C(=O)NC4CCC4)ccc3n2)c1 (stereo not drawn)  log2 fold change (MV4-11; TMT proteomics, measured: RPLP2; whole proteome; 10 µM, 16 h; relative to: DMSO): -0.081
Nc1ccn([C@@H]2O[C@H](CO)[C@@H](O)C2(F)F)c(=O)n1  viability (OCI-Ly1; 1 µM, 120 h): 1.68%
Cn1cc(Nc2nccc(-c3ccc4c(c3)CN(C3COC3)CC[C@H]4NC(=O)c3cn(C(C)(C)C)nn3)n2)cn1  pathway activation z-score (mouse splenic B cells; measured: Gαq signalling; 30 mg/kg, IgD-activated in vivo; relative to: vehicle, direction not given): 3.78
NC(=O)[C@H](CCCN=C(N)CF)NC(=O)c1ccccc1  viability (OCI-Ly1; 0.1 µM, 120 h): 180%
O=C(COc1ccc(Cl)cc1)NC12CC(c3nnc([C@H]4C[C@@H](OC(F)(F)F)C4)o3)(C1)C2  ATF4 protein level (HEK293 expressing (G4C2)71-GFP; electrochemiluminescence; 1 µM, 2.5 h, C9orf72 repeat expansion): decreased
Cn1cc(-c2ccc(-c3cncc(Cl)c3N3CCC4(CCNC4=O)CC3)cc2)cn1  log2 fold change (COLO 205; gene expression, microarray, measured: IRF7 mRNA; concentration not given, 2 h; relative to: untreated cells): 2.09
CC(C)NCCCn1c(Sc2cc3c(cc2I)OCO3)nc2c(N)ncnc21  MyBP-C protein level (iPSC-derived cardiomyocytes; initial hit retest; concentration not given, 24 h, plate-normalised): 23%
O=C(O)C(Cc1c[nH]c2ccccc12)N1C(=O)c2ccccc2C1=O (stereo not drawn)  viability (OCI-Ly1; 1 µM, 120 h): 154%
CC(C)NCC(O)c1ccc(O)c(O)c1 (stereo not drawn)  sarcomere length (mouse ventricular cardiomyocytes; dose not given, 0.367 s): 1.8 µm
CC(C)(C)OC(=O)Nc1ccc(-c2cc(C(=O)NCCCCCCC(=O)NO)no2)cc1  viability (OCI-Ly1; 1 µM, 120 h): 9.14%
O=C(/C=C/C=C/C=C/C1CCCCC1)NC1=C[C@@](O)(/C=C/C=C/C=C/C(=O)NC2=C(O)CCC2=O)[C@@H]2O[C@@H]2C1=O  GI50 (CAL-33; cell growth, CellTiter-Glo; 78 h): 10.5 µM
CC(=O)c1c(O)c(C)c(O)c2c1OC1=CC(=O)C(C(C)=O)C(=O)C12C (single isomer, unassigned; (+))  IC50 (hepatocytes, iPSC-derived, line W1; cell viability; 48 h): 18 µM
Nc1ncn([C@@H]2O[C@H](CO)[C@@H](O)[C@H]2O)c(=O)n1  viability (OCI-Ly1; 0.1 µM, 120 h): 186%
CCCCCNC(=O)N1CCC(CN(Cc2ccc(Cl)cc2)Cc2ccc([N+](=O)[O-])s2)C1 (stereo not drawn)  inhibition (HepG2, control siRNA; transcription, qPCR, measured: BMAL1 mRNA; concentration not given): 39%
CN(C)c1ccc2nc3ccc(=[N+](C)C)cc-3sc2c1  mean mIPSC amplitude (mouse CA1 pyramidal neurons; patch clamp; hippocampal slices; 10 µM): 33 ± 2.5 pA
Cn1cc(-n2cnc3c(NCc4nc5cc(Cl)c(Cl)cc5[nH]4)nc(N4CCOCC4)nc32)cn1  mRNA level (MDA-MB-231; qRT-PCR, measured: ATM; 0.05 µM, 6 h, unit not given; relative to: DMSO): 0.682 and 0.603 and 0.475
C#C[C@@]1(O)[C@@H](CO)O[C@@H](n2ccc3c(N)ncnc32)[C@@H]1O  TGI (786-0; cell growth, SRB): 6.15 µM
COC(=O)/C=C/C(=O)N(O)CCCCNCc1ccc(COC(=O)Nc2cccc3ccccc23)cc1  viability (OCI-Ly1; 0.1 µM, 120 h): 207%
CCn1cc(-c2cc(Cn3ccnc3)cc3c2CCN([C@H](c2cc(OC)ccn2)C2CC2)C3=O)c(C(F)(F)F)n1  EC50 (SNU308; cell growth; 120 h): 13.7 µM
CCn1c(=O)/c(=C2\Sc3cc(Cl)ccc3N2C)s/c1=C\c1scc[n+]1Cc1ccccc1.[Cl-]  fitted top MyBP-C level (iPSC-derived cardiomyocytes; concentration-response fit; concentration not given; relative to: vehicle): 138%

For quick reference, copied from above:
CC(C)NCCCn1c(Sc2cc3c(cc2I)OCO3)nc2c(N)ncnc21  MyBP-C protein level (iPSC-derived cardiomyocytes; initial hit retest; concentration not given, 24 h, plate-normalised): 23%
O=C(COc1cccc2c1C(=O)N(C1CCC(=O)NC1=O)C2=O)NCCOCCOCCNS(=O)(=O)Nc1cccc(-c2cn3cc(C(=O)NC4CCC4)ccc3n2)c1 (stereo not drawn)  log2 fold change (MV4-11; TMT proteomics, measured: RPLP2; whole proteome; 10 µM, 16 h; relative to: DMSO): -0.081
